Results from different studies.
Each numbered part is a random draw from the data of one study; scales do not carry over between parts.
Chain of UniProt P10721 (whole entry, unmodified, looked up): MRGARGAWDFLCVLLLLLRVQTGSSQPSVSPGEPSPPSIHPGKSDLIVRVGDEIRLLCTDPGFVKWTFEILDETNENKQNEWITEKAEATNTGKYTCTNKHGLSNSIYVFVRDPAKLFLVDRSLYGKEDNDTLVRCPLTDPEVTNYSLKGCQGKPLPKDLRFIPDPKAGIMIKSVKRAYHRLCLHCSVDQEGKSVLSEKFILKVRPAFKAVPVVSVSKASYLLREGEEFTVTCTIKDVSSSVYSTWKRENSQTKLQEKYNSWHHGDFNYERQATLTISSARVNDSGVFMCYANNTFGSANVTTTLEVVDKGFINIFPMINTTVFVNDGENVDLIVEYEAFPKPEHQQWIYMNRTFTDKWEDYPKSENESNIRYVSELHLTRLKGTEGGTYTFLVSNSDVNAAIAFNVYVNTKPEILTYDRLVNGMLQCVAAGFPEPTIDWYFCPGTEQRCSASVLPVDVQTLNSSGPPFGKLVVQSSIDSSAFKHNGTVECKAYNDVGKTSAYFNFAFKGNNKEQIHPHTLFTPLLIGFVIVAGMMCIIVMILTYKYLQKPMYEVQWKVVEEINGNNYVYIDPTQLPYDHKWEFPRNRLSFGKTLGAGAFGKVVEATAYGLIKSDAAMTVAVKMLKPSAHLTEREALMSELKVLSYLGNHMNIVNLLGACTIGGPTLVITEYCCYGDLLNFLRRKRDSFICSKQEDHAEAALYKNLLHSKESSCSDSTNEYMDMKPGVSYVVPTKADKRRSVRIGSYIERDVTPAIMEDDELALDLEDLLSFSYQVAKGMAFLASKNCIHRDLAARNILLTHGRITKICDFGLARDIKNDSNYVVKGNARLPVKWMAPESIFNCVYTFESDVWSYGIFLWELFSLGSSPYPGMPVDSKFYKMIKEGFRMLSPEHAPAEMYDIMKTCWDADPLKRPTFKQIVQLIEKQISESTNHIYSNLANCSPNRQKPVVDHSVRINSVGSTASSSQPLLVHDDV
Chain of UniProt P49841 (whole entry, looked up): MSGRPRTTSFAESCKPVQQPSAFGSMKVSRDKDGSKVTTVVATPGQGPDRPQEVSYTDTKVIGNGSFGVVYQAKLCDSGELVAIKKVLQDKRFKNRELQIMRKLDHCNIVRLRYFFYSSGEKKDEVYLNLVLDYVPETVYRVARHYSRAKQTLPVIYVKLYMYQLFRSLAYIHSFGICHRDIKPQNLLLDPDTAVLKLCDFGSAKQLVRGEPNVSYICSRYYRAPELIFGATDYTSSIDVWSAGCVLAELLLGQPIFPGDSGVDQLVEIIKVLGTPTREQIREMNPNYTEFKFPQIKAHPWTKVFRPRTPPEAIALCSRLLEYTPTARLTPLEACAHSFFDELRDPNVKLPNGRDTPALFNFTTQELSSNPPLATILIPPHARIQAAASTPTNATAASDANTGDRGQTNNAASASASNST
Chain of UniProt P42685 (whole entry, looked up): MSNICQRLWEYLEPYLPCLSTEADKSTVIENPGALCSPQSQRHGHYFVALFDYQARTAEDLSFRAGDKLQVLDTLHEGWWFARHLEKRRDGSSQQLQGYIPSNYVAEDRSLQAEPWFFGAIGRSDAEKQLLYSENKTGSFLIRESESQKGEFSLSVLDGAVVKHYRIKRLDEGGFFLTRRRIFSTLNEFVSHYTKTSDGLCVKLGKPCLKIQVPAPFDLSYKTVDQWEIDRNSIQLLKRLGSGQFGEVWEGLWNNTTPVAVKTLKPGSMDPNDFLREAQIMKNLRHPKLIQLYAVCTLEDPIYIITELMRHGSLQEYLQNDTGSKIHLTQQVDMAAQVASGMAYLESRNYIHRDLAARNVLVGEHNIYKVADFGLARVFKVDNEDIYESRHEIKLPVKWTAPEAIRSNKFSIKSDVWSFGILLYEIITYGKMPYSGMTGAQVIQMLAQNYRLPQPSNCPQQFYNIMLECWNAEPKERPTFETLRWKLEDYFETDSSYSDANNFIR
Chain of UniProt O75676 (whole entry, looked up): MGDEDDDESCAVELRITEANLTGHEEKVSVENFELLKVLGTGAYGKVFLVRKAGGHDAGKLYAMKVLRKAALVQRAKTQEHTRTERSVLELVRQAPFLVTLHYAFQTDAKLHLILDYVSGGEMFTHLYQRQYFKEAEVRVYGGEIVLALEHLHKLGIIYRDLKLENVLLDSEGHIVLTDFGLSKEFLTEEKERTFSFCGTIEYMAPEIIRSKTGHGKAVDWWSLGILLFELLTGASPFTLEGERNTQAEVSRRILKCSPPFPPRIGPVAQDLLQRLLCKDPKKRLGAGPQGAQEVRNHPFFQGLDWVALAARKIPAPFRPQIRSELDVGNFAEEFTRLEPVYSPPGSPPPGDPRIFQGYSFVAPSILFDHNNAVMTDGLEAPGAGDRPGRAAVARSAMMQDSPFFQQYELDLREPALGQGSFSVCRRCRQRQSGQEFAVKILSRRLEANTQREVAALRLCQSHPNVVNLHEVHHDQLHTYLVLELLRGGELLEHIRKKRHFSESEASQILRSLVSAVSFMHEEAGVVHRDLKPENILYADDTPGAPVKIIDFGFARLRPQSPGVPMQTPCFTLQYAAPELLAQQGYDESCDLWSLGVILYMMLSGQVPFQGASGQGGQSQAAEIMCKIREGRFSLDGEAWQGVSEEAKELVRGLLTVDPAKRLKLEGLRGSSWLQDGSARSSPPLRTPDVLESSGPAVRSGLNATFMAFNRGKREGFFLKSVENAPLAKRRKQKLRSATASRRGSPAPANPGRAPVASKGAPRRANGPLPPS
Chain of UniProt P36896 (whole entry, looked up): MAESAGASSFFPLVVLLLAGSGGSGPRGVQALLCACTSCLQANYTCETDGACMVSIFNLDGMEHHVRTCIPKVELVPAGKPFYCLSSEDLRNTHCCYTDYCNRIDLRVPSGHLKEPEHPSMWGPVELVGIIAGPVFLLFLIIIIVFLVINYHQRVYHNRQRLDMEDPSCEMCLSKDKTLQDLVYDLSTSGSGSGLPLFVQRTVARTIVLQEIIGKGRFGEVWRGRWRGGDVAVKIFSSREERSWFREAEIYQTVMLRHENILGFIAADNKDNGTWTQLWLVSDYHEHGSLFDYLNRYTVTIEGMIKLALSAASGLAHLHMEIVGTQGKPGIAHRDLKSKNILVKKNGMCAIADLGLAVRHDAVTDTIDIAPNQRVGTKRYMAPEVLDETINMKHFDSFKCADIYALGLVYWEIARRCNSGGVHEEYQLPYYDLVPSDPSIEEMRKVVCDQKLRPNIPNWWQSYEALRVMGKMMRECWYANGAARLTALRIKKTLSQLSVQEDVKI
Chain of UniProt Q8IYT8 (whole entry, looked up): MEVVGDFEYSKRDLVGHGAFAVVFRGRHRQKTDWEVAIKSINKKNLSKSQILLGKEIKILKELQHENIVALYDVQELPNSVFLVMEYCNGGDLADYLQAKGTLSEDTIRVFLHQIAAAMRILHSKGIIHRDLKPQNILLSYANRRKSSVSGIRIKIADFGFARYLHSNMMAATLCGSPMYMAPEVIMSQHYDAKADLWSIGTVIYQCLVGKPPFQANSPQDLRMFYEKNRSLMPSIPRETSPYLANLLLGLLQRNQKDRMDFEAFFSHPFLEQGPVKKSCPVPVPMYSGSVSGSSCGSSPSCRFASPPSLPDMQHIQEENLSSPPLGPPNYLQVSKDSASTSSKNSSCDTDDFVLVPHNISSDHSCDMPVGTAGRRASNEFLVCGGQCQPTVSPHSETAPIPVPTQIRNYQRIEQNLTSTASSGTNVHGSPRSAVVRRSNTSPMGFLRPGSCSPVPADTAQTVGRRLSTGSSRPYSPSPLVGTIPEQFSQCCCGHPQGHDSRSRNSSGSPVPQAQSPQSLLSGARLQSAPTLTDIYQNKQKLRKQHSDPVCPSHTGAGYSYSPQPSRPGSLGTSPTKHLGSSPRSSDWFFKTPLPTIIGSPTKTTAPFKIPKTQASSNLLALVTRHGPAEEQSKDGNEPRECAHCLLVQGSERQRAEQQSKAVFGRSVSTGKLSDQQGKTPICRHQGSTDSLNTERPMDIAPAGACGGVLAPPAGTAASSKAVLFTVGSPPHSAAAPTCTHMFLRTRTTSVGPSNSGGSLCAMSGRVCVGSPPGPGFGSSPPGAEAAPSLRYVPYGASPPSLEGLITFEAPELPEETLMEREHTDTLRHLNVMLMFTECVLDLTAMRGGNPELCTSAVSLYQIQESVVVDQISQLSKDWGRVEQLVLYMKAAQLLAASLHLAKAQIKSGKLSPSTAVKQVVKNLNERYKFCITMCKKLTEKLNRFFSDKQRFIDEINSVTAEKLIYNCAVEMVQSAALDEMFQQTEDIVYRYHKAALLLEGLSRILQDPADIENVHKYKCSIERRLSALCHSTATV
Chain of UniProt P49759 (whole entry, looked up): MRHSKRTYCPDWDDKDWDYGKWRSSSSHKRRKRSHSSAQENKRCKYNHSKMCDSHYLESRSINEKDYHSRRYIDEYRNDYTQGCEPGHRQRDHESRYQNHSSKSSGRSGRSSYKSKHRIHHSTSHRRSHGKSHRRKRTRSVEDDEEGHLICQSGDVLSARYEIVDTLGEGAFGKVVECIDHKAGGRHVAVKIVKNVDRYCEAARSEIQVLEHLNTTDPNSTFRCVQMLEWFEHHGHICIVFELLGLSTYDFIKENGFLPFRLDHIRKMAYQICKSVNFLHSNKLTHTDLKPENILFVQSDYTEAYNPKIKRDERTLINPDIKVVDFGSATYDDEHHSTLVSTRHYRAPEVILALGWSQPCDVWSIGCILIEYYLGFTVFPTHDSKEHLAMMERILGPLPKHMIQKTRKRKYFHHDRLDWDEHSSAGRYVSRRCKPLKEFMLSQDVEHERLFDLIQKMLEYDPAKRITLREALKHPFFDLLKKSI
Chain of UniProt Q9C5X0 (whole entry, looked up): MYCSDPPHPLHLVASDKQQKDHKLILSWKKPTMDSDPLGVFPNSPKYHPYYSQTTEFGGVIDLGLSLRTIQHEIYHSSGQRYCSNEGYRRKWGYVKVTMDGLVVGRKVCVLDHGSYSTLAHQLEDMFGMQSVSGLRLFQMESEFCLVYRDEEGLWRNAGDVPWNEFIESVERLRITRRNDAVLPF

Block 1 — Sequence: B1 (IAA4); method: two-hybrid; reference: out of 4 tests; reading: higher = firmer interaction
B1: IAA4 (Arabidopsis thaliana, UniProt P33077); chain MEKVDVYDELVNLKATELRLGLPGTEETVSCGKSNKRVLPEATEKEIESTGKTETASPPKAQIVGWPPVRSYRKNNVQTKKSESEGQGNYVKVSMDGAPYLRKIDLTMYKQYPELMKSLENMFKFSVGEYFEREGYKGSDFVPTYEDKDGDWMLVGDVPWEMFVSSCKRLRIMKGSEVKGLGCGGL
partner | setting | positive tests
IAA20 (Arabidopsis thaliana, UniProt O24410) | weak activation fusion | 2
ARF2 727-859 (Arabidopsis thaliana, UniProt Q94JM3) | – | 1
ARF18 482-602 (Arabidopsis thaliana, UniProt Q9C5W9) | – | 0
IAA17 (Arabidopsis thaliana, UniProt P93830) | – | 4
ARF14 497-605 (Arabidopsis thaliana, UniProt Q9LQE8) | – | 0
IAA34 (Arabidopsis thaliana, UniProt Q9C5X0) | – | 4

Block 2 — read-out: cell-free assay; method: competition with immobilised ligand; concentration: 1 µM
Structure (SMILES): C[C@H](c1ccc(F)cc1)N(Cc1cccc(C(=O)O)c1)C(=O)c1cnc2ccccc2c1
target | remaining binding [%]
Tyrosine-protein kinase ABL1, phosphorylated (ABL1, Homo sapiens, UniProt P00519, Q252H) | 89
Mast/stem cell growth factor receptor Kit (KIT, Homo sapiens, UniProt P10721, V559D/V654A) | 100
TRAF2 and NCK-interacting protein kinase (TNIK, Homo sapiens, UniProt Q9UKE5) | 95
1-phosphatidylinositol 3-phosphate 5-kinase (PIKFYVE, Homo sapiens, UniProt Q9Y2I7) | 100
Citron Rho-interacting kinase (CIT, Homo sapiens, UniProt O14578) | 100
Tyrosine-protein kinase ABL1, non-phosphorylated (ABL1, Homo sapiens, UniProt P00519) | 76
Ribosomal protein S6 kinase alpha-4, C-terminal kinase domain (RPS6KA4, Homo sapiens, UniProt O75676) | 100
Dual specificity protein kinase CLK1 (CLK1, Homo sapiens, UniProt P49759) | 91
Hepatocyte growth factor receptor (MET, Homo sapiens, UniProt P08581) | 100
Non-receptor tyrosine-protein kinase TNK1 (TNK1, Homo sapiens, UniProt Q13470) | 100
Mast/stem cell growth factor receptor Kit (KIT, Homo sapiens, UniProt P10721, L576P) | 94
Epithelial discoidin domain-containing receptor 1 (DDR1, Homo sapiens, UniProt Q08345) | 100
Serine/threonine-protein kinase PLK2 (PLK2, Homo sapiens, UniProt Q9NYY3) | 100

Block 3 — method: protein-binding microarray; molecule type: hairpin DNA; matrix: in vitro; concentration: not given; reference: not given; reading: higher = stronger binding
Target: Runt-related transcription factor 1, full length (RUNX1, Homo sapiens, UniProt Q01196-8, residues 1-480)
Setting: whole hairpin DNA, median over replicate spots
Sequence | median fluorescence
GAGGCCTGTTGGGGTTGGCCTCCTGGCCAACCCCAACAGGCCTCACACTC | 1900 a.u.
CTCAGTTCTGTGGGCAGGACTCCTGTCCTGCCCACAGAACTGAGACACTC | 2080 a.u.
GAGGCCCGACCGCAACAGCCTCCTGGCTGTTGCGGTCGGGCCTCACACTC (5mC at 7 37) | 4560 a.u.
CTCAGTTCTGCGGGCTGGACTCCTGTCCAGCCCGCAGAACTGAGACACTC (5mC at 11 33) | 1790 a.u.
GAGGCCTGTTGCGGTTGGCCTCCTGGCCAACCGCAACAGGCCTCACACTC (5mC at 12) | 3300 a.u.
CTCAGTTCTCTGGGCTGGACTCCTGTCCAGCCCAGAGAACTGAGACACTC | 1580 a.u.
GAGGCCTGGTGCGGTTGGCCTCCTGGCCAACCGCACCAGGCCTCACACTC (5mC at 36) | 3330 a.u.
GAGGCCTGTTGTGGTTGGCCTCCTGGCCAACCACAACAGGCCTCACACTC (5mC at 32) | 1770 a.u.

Block 4 — Structure (SMILES): O=c1cc(N2CCOCC2)oc2c(-c3ccccc3)cccc12; read-out: enzyme activity; mode: inhibitor; concentration: 0.5 µM; reference: control
target | remaining activity
Serine/threonine-protein kinase ULK2 (ULK2, Homo sapiens, UniProt Q8IYT8) | 113%
Glycogen synthase kinase-3 beta (GSK3B, Homo sapiens, UniProt P49841) | 96.9%
Mitogen-activated protein kinase 3 (MAPK3, Homo sapiens, UniProt P27361) | 104%
Serine/threonine-protein kinase Nek1 (NEK1, Homo sapiens, UniProt Q96PY6) | 86.7%
Serine/threonine-protein kinase TBK1 (TBK1, Homo sapiens, UniProt Q9UHD2) | 94.1%
Tyrosine-protein kinase FRK (FRK, Homo sapiens, UniProt P42685) | 101%
Mitogen-activated protein kinase kinase kinase 14 (MAP3K14, Homo sapiens, UniProt Q99558) | 101%
Casein kinase I isoform gamma-2 (CSNK1G2, Homo sapiens, UniProt P78368) | 94.4%
Fibroblast growth factor receptor 3 (FGFR3, Homo sapiens, UniProt P22607) | 95.9%
Angiopoietin-1 receptor (TEK, Homo sapiens, UniProt Q02763) | 89.2%
Dual specificity mitogen-activated protein kinase kinase 2 (MAP2K2, Homo sapiens, UniProt P36507) | 96.8%
Activin receptor type-1B (ACVR1B, Homo sapiens, UniProt P36896) | 101%
Tyrosine-protein kinase Mer (MERTK, Homo sapiens, UniProt Q12866) | 95.2%
